# Published values pooled from the literature.
# A part holds a random share of what one study measured. Substitutions count along the parent as printed.

# Study 1
# Target: ABI1, truncated, D143A, DHFR fusion (Arabidopsis thaliana)
# Method: DHFR PCA, deep sequencing
# Sample: yeast
# Notes: methotrexate growth selection, single substitutions
# Added: (+)-ABA 0.39 µM
# Baseline: wild-type fitted maximum
# Direction: higher = stronger binding
# Parent: PYL1, truncated, DHFR fusion (Arabidopsis thaliana); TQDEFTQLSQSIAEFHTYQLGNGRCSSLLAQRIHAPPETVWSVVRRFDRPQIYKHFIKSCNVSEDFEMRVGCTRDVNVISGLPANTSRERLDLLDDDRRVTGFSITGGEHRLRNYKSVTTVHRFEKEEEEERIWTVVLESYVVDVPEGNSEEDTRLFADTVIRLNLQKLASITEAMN
Substitution,relative binding score [%]
T160F,57.5
L20K,50.8
R45C,-9.33
D3R,26
S26M,8.5
D153S,-13.7
V78R,28.4
A30N,-0.194
E14F,-19.1
E129T,47.4
I133V,66.4
D75W,42.2
I105A,-5.44
A30V,36.1
T39S,16.1
L91V,-6.55

# Study 2
# Target: Sal-like protein 4, full length isoform B (SALL4, Homo sapiens, UniProt Q9UJQ4-2, residues 1-616)
# Method: universal PBM
# Form: double-stranded DNA, one strand shown
# Sample: in vitro
# Tested at: not given
# Notes: 8-mer, flanks averaged, mean of replicates
# Direction: higher = stronger binding
# Target sequence (chain): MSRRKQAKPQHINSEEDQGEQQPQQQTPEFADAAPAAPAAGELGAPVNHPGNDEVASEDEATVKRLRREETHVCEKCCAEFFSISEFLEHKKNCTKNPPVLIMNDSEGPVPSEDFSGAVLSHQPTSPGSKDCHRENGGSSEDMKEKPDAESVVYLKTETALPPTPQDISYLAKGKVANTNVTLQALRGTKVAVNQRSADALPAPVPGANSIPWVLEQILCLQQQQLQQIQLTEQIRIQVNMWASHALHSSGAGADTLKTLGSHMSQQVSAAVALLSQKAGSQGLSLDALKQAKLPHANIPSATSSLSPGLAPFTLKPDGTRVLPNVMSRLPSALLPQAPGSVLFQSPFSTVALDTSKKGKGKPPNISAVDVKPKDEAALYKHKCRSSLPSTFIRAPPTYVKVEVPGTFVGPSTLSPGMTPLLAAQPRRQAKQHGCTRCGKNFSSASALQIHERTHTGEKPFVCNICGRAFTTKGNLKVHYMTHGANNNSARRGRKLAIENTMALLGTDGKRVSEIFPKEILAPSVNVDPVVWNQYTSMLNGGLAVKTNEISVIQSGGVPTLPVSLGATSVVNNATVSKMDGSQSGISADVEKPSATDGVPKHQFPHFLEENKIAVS
Oligonucleotide,E-score
CCGCCCCC,-0.302
AGCTCACT,-0.211
ACTTCCGC,-0.106
CCTACGCC,-0.246
GCTGATAA,0.0858
CAATTGCC,0.114
TTCCCAAA,0.151
GATACGCA,0.0328
ATGCTCGG,-0.0935
ACGGCGCT,-0.306
GTTATTGA,0.339
ATAGCGTC,-0.0101
ACGGTAGA,-0.105
GAAGGCTA,-0.00411
GGTGTACA,0.129
CACTTTCC,0.0173
CTCCTAAC,0.00962
ATGGCTAC,0.14
AGGCTCGG,-0.228
AGAATGAA,0.214

# Study 3
# Target: RNA binding protein fox-1 homolog 2, RRM domain, GST-SBP tag (RBFOX2, Homo sapiens, UniProt O43251-10, residues 100-194)
# Method: RNA Bind-n-Seq
# Form: RNA
# Sample: in vitro
# Tested at: 365 nM
# Notes: natural RNA segment, single round, ends assumed
# Baseline: no-protein control
# Direction: higher = stronger binding
# Shared flanks, not repeated: GGGAGUUCUACAGUCCGACGAUC … UGGAAUUCUCGGGUGCCAA
# Target sequence (chain): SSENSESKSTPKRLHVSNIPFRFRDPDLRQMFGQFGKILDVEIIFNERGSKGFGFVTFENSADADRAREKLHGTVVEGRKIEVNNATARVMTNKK
Oligonucleotide,RBNS enrichment (R)
CAAGUUCUCUGGGCAGGAAUUACAGCACCUGUCCCCUGCAAUGGCCCUGCUGUGUGAUGCUCAUCGCUUCCCUUCGUGCUGGAGCAGUCCCCCAGGUGUCCAUCUCCUAU,0.274
CAUCCCCGCGGUUGAGGCUGUGGGGGCAGCAGAUCAGGAGCCCACUGAUAAGGGGCCCUAGGGUACAGGGUGCUGCCCAGCAGGUCGCCACCGAGUGUCUUCUCAUUUUA,0.328
CACUGUACCUGCCUGCUGAACAGCCUGCCCCCGUCCAUCCAUGAGCCAGCAUCCGUCCGUCCUCCACUCUCCAGCCUCUCCCCAGCCUCCUGCACUGAGCUGGCCUCACC,11
CUCUCUCUCAUCCAGGGUCCCUGCCUGACCCACCAGUUGCUCGUGAGCUGCACAGUUCAGAUGAGACUGGACCCUCCCUUACUUACUCCUGAGCCCUGCUCUCCUCUCCU,0.656
UCUUAGGCCCUCAGGUCCCCAUAGCACUGGGAGGGGGCGCUGGGGACCAUGUGCCCAGGGACUGCAGCCAGGUUCACUCUGCUGGGAGAGCUGGCUGGGGGGAAGGGCUU,0.772
AGACUGACAGCCAGCCUGGCUCAUUCUCAUUAUUGGCUAGUUAGCUUUCUUUAUCAACCUGCUCACUCACAAAUGUGUGCCCUCAGCCAGAGAGUAAGAAAGCCCAAAUC,0.201
UUCUGUACCACUUGAGGUAUAUGUUUAGUUUUUUUACGUAUCUUCUAAGAAGCUCAGUUUUGCGGUUUUGAUUUCAGGUUGCAAACAUUUAAAUUGUGCACAGCAACAGG,0.295
CACCCCUUUCCUUCCCUACCCAGCCAGGCUGGGCUGCCUCCUGCCCCCCUCGCUAGCCAUUUGGGGGUGGCAAGGGGGUGUGGUUGUUUCUCGUGGUUGUGUGUGUUUGU,0.605
CUUUGAGUAGGACAACAAGGAACAUUAAAGAAGGAAAGUUCUAGAACAAUCUUUUGCUAAAAAAAAAAAAAAAGAAAGAAAUUGCUUUAUGGUGAAAACUGUGGGAAGGG,0.732
GAAUUCUAUUUUUGCUGAAUAUGCCAAAGAAUCAAAAGCCAUGGCUAUUAAGACAGAUGUGGAUGUUGUUGAAAUAAAAAAUACCUUAAGGAAGCACAUAUAUAGAGCUC,0.643
GUGGCUGCGCCGCCAGGCCCCAACAAUGGGGACCCUGGGGUGGCUCCUGGCCAAGUGUUCUCUGUUUUCCUCGCACCUCCUUACACUGUGUGACCUGCAGGGCAUGAGGU,0.371
UGGAGGCUGCAGUGACUUUUUUUGGCUCAAGAUCCACAAGCAUUAGAGUAGACUGGGCCAACAAGUCAACAAGUGGUGGCGUGUGCAAACGGGCUGCCCUAGUCAAGCCC,0.86

# Study 4
# Target: CCNA1, cyclin fold, Cln2 fusion (human)
# Method: yeast growth competition, sequencing
# Sample: yeast
# Notes: weak parent motif
# Baseline: not given
# Direction: higher = stronger binding
# Parent: BRCA2 docking peptide (human); PSIKRNLLNEFDR
Substitution,normalised enrichment score
L7C,0.273
R13A,0.733
P1L,0.527
L7H,0.173
D12F,0.711
N9V,0.242
L8D,-0.0544
N6M,0.15
L8C,0.316
I3S,0.535
N6E,0.534
D12M,0.684
L8R,-0.259
R5D,0.461
E10R,-0.0176
L8M,0.724
N9T,0.736
E10H,0.201
R5N,-0.116
D12V,0.68
K4Q,-0.091
R13I,0.889
K4R,0.431
K4T,0.136
D12A,0.72

# Study 5
# Target: RING finger protein unkempt homolog, zinc fingers 1-6, GST-SBP tag (UNK, Homo sapiens, UniProt Q9C0B0, residues 30-357)
# Method: RNA Bind-n-Seq
# Form: RNA
# Sample: in vitro
# Tested at: not given
# Notes: RNA with constant flanks, human-mouse chimeric sites, ends assumed
# Baseline: input RNA pool
# Direction: higher = stronger binding
# Shared flanks, not repeated: GGGAGUUCUACAGUCCGACGAUC … CAACAGAGGAUUGAGCAUCA
# Construct (chain): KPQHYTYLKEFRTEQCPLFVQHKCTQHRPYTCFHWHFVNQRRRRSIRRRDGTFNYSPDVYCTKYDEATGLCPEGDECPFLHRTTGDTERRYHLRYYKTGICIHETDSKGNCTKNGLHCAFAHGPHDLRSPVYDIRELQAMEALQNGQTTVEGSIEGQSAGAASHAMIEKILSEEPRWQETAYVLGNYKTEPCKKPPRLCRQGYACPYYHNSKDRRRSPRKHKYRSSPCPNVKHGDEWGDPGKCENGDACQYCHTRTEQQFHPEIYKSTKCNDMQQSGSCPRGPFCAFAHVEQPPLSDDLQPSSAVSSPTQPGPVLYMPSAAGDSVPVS
Oligonucleotide,bound/input enrichment
GUAUACGGUUAUCGAGGAAAGGACUGUAGAGCGAAUGUAUACCUGCUUCCCACAGGGGAGAUAGUUUAUUUUAUCGCAUCAGUAGUAGUACUAUUUAAUUAUGAGGAGAGGACUCAGCGA,22.4 ratio
UUGAAAACUGAUUCAAGUAAGUUUGAGUAUCACAAUGUUAGCUUUCUAAUUCCAUAAAGAUAGUUUUUUUUUACAGUAACCCCACAUACAUCACCCCAGCGCCAUUUGUAAAGAGCAACU,13.8 ratio
GUAAUGGACGUCAACACUGCUUUACAAGAGGUGCUGAAGACCGCCCUCAUCCACGAUGGCCUAGCACGUGGAAUUCGCGAAGCUGCCAAAGCCUUAGACAAGCGCCAAGCCCAUCUGUGU,0.678 ratio
GGCCUGGGACCGUCCUGGGCUAGUACAAUAGCGGCAGGUGGAGGCUCGAGAGGAAAGUUUGUUAGUGGAGGCAGUGGUAGAGGCCGUAUGUACGCUCCCUUUACUCGAUAGAUGUGUUCU,0.341 ratio
UUAUCCAAGACUCAACGAAAGACUCCAACGGUUAUUCAUAAACAUUACCAAAUACAUCGGAUUCGACAUUUUUAUAUGAGAAAAGUCAAAUUUACUCAACAGAAUUACCAUGACAGACUG,0.188 ratio
AGUGUGCAGGAAUUCAUGACCUUUACAAGUCAACUGAUUGUGGAACGCUCAUCGAAAGGCACUAGAGCUUCUGUCAAAGAACAAGAGUAUCUUUGCCAUGUCUACGUCCGGAGCGACAGU,0.0809 ratio
CUGGCCUGGCCCUCCCCAGGGGCCUCCUUUCGUAUAGUCACUGCUUCUGCUACGGAUACUUUCAGCUGCAACUCCCUGCAGGGUGGGGCACCCAUUUCAGGCAGAAGGUUUUGGUACCCU,0.337 ratio
UCAGUCUUUUUGUACAGCUUUGUAAAUUCUUAACAUUUUUAUAUUGCCAUGUUUAUUUUGUUUGGGUGCUUUAUUAAAUUAAGUACAUAGCUAAGGUAAUGAACAUCUUUUUCAGUAAUU,1.31 ratio
AUGGAGAAGGAUUCUCUGCCCCGCUUUGUGCGCUCUGAAUUUUAUAAGGAGUUAAUCAAGUAGUCAUCUGGUCAGGCUUCCAAAAGUUGCCCUGUGAGUUGAGUUACAUCCUUUGUAGCA,0.192 ratio
UUUGUUUGUAACUUAUCUGUAAAAGGUUCCCCCCCCCACUGUCAAAAAAAUAUGCAUGUAUAGUAAUUAGGACUUCAUUCCUCCAUGUUUUCUUCCCUUAUCUUACUGUCAUUGUCCUUA,1.66 ratio
CAGGGCAUUAUUUCUCGUGCUGUUAGACACCUGUUCAAGAGUAUUGAUGAGAAAAAGACCUCAGCGAUUAAAAAUGGGCUGCCCCCUCCUGAAUUCAAAGUGAAUGCCCAGUUCCUAGAG,0.183 ratio

# Some of these lines once more (study 5):
Oligonucleotide,bound/input enrichment
CUGGCCUGGCCCUCCCCAGGGGCCUCCUUUCGUAUAGUCACUGCUUCUGCUACGGAUACUUUCAGCUGCAACUCCCUGCAGGGUGGGGCACCCAUUUCAGGCAGAAGGUUUUGGUACCCU,0.337 ratio
UUUGUUUGUAACUUAUCUGUAAAAGGUUCCCCCCCCCACUGUCAAAAAAAUAUGCAUGUAUAGUAAUUAGGACUUCAUUCCUCCAUGUUUUCUUCCCUUAUCUUACUGUCAUUGUCCUUA,1.66 ratio
AUGGAGAAGGAUUCUCUGCCCCGCUUUGUGCGCUCUGAAUUUUAUAAGGAGUUAAUCAAGUAGUCAUCUGGUCAGGCUUCCAAAAGUUGCCCUGUGAGUUGAGUUACAUCCUUUGUAGCA,0.192 ratio
CAGGGCAUUAUUUCUCGUGCUGUUAGACACCUGUUCAAGAGUAUUGAUGAGAAAAAGACCUCAGCGAUUAAAAAUGGGCUGCCCCCUCCUGAAUUCAAAGUGAAUGCCCAGUUCCUAGAG,0.183 ratio
UCAGUCUUUUUGUACAGCUUUGUAAAUUCUUAACAUUUUUAUAUUGCCAUGUUUAUUUUGUUUGGGUGCUUUAUUAAAUUAAGUACAUAGCUAAGGUAAUGAACAUCUUUUUCAGUAAUU,1.31 ratio
GUAAUGGACGUCAACACUGCUUUACAAGAGGUGCUGAAGACCGCCCUCAUCCACGAUGGCCUAGCACGUGGAAUUCGCGAAGCUGCCAAAGCCUUAGACAAGCGCCAAGCCCAUCUGUGU,0.678 ratio
AGUGUGCAGGAAUUCAUGACCUUUACAAGUCAACUGAUUGUGGAACGCUCAUCGAAAGGCACUAGAGCUUCUGUCAAAGAACAAGAGUAUCUUUGCCAUGUCUACGUCCGGAGCGACAGU,0.0809 ratio
GUAUACGGUUAUCGAGGAAAGGACUGUAGAGCGAAUGUAUACCUGCUUCCCACAGGGGAGAUAGUUUAUUUUAUCGCAUCAGUAGUAGUACUAUUUAAUUAUGAGGAGAGGACUCAGCGA,22.4 ratio
UUAUCCAAGACUCAACGAAAGACUCCAACGGUUAUUCAUAAACAUUACCAAAUACAUCGGAUUCGACAUUUUUAUAUGAGAAAAGUCAAAUUUACUCAACAGAAUUACCAUGACAGACUG,0.188 ratio
GGCCUGGGACCGUCCUGGGCUAGUACAAUAGCGGCAGGUGGAGGCUCGAGAGGAAAGUUUGUUAGUGGAGGCAGUGGUAGAGGCCGUAUGUACGCUCCCUUUACUCGAUAGAUGUGUUCU,0.341 ratio
